Published values from different studies.
Every numbered part comes from another study and shows a few of its results, in no order. Values joined by “and” are separate records of one study, mostly repeats; a detail may differ. Changes are numbered by the printed parent chain.
Sequence of UniProt Q9H2G2 (whole entry, looked up): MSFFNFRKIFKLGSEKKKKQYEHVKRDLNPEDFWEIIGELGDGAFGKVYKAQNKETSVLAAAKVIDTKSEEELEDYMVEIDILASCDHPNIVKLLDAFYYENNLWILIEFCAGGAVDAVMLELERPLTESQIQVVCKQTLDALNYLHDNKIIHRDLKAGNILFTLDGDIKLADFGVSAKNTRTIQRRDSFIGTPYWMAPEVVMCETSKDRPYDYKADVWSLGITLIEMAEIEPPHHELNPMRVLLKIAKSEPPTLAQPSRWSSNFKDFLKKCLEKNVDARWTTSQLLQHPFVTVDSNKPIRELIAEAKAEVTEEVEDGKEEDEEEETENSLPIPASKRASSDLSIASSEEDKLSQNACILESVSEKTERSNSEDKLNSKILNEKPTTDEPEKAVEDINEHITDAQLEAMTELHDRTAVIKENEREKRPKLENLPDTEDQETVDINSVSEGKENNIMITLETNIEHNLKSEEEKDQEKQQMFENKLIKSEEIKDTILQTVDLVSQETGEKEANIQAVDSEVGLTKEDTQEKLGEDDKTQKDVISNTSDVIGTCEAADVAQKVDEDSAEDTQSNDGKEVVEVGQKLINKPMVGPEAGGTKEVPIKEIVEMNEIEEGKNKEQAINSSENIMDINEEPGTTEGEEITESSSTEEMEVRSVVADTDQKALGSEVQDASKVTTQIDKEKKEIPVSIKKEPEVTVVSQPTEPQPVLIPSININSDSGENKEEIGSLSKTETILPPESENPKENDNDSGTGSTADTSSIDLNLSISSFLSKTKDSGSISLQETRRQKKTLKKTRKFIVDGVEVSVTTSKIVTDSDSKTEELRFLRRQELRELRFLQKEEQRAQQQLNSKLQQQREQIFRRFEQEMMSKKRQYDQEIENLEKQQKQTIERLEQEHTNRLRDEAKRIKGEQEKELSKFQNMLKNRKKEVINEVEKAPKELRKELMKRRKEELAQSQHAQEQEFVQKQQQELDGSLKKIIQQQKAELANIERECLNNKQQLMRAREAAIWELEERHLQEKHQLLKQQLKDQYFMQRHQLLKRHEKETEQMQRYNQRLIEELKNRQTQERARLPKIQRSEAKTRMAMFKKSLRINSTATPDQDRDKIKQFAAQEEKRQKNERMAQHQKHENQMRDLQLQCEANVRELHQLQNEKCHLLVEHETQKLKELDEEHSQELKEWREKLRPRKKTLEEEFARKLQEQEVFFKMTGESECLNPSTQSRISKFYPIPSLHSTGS

Sample 1
Target: inorganic phosphate, free oxyanion
Method: microfluidic competitive inhibition
Medium: in vitro, cell-free expressed
Concentration: not given
Notes: derived from inhibition constants, unchanged parent 615000 nM
Direction: lower = stronger binding
Measurement: phosphate dissociation constant
Parent: PafA, mature enzyme, eGFP fusion (Elizabethkingia meningoseptica, UniProt Q9KJX5); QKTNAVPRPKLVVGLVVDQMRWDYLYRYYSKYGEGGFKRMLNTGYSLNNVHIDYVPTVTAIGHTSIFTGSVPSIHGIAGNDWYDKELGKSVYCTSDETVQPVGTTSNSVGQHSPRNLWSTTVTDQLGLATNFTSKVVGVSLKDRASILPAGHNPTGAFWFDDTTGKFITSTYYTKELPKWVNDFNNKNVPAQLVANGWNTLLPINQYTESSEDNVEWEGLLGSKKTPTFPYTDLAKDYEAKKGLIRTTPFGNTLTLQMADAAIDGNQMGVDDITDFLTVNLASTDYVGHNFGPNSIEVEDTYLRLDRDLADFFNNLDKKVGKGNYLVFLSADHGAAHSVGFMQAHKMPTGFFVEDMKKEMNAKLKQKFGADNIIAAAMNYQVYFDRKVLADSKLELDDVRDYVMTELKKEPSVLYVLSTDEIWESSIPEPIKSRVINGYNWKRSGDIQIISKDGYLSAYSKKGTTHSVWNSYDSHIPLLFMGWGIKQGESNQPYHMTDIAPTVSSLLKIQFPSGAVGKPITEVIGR
T405V: 631 µM
P428G: 484 µM
G321A: 580 µM
S295G: 461 µM
S211G: 487 µM
A195G: 554 µM
Q343G: 443 µM
Y325V: 656 µM

Sample 2
Target: CCNE1, cyclin fold, Cln2 fusion (human)
Method: yeast growth competition, sequencing
Medium: yeast
Notes: strong parent motif
Relative to: not given
Direction: higher = stronger binding
Measurement: normalised enrichment score
Parent: viral docking peptide; TSVRRALFTGGSD
R5A L7A: -0.176
A6Y: 0.525
T9G: 5.07
L7Y: 0.511
R5N: 0.558
S12N: 5.79
S12Y: 5.47
R4S: 2.78

Other studies, line by line
O=C1CCC(N2Cc3c(ccc4c3OCC43CCN(Cc4ccccc4)CC3)C2=O)C(=O)N1 (stereo not drawn)  volume of distribution (Vz) (male ICR mice, plasma; intravenous, 1.0 mg/kg): 6540 mL/kg and 4350 mL/kg
COc1cc2c(cc1OC)C13CCN4CC5=CCOC6CC(=O)N2C1C6C5CC43 (stereo not drawn)  viability (HaCaT; 100 µM, 18 h): 94.6%
COC[C@H]1OC(=O)c2coc3c2[C@@]1(C)C1=C(C3=O)[C@@H]2CCC(=O)[C@@]2(C)C[C@H]1OC(C)=O  remaining activity (SLK (Homo sapiens, UniProt Q9H2G2); enzyme activity, inhibitor; 0.5 µM; relative to: control): 94.1%
CCOc1ccc(Nc2c3c(nc4ccccc24)CCC3)cc1  cytotoxicity (HepG2; resazurin; 1.66 µM, 48 h): 3% and 4%
C[C@]12CC[C@H](O)CC1=CC[C@@H]1[C@@H]2CC[C@]2(C)C(=O)CC[C@@H]12  viability (HaCaT; 100 µM, 18 h): 65.6%
